Values quoted from earlier work, collected from citations in different studies.
Each line is one published result; not all experiments were run side by side. Numbers after ± are the reported error.
BRD4 BD1: Bromodomain-containing protein 4, BD1 (BRD4, Homo sapiens, UniProt O60885)
AURKB: Aurora kinase B (AURKB, Homo sapiens, UniProt Q96GD4)
UniProt Q96GD4, sequence (whole entry, looked up): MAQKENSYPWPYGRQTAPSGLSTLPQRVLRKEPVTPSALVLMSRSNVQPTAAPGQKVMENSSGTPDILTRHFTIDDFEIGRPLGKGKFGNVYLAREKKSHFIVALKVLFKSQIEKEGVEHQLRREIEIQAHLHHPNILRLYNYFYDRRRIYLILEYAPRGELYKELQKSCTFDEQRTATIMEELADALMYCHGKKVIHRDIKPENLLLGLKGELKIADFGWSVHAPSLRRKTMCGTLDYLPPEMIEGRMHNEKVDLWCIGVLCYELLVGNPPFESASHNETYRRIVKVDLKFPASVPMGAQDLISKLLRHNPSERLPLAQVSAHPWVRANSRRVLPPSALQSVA
CHEK1: Serine/threonine-protein kinase Chk1 (CHEK1, Homo sapiens, UniProt O14757)
UniProt O14757, sequence (whole entry, looked up): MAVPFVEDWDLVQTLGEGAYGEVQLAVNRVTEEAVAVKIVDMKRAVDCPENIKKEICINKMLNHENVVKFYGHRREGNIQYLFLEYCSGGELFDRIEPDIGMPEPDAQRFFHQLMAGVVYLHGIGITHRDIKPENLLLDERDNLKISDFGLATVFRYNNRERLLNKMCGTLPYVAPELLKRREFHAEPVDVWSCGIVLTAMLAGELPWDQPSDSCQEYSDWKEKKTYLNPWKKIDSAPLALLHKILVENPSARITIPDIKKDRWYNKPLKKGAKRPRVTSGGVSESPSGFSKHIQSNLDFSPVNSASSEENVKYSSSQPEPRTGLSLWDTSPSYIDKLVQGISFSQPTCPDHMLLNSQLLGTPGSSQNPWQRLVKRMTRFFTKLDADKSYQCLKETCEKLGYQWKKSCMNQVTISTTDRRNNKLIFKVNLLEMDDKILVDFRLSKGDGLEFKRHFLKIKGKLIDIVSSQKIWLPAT
CTSB: Cathepsin B (CTSB, Homo sapiens, UniProt P07858)
CYP2C19: Cytochrome P450 2C19 (CYP2C19, Homo sapiens, UniProt P33261)
UniProt P33261, sequence (whole entry, looked up): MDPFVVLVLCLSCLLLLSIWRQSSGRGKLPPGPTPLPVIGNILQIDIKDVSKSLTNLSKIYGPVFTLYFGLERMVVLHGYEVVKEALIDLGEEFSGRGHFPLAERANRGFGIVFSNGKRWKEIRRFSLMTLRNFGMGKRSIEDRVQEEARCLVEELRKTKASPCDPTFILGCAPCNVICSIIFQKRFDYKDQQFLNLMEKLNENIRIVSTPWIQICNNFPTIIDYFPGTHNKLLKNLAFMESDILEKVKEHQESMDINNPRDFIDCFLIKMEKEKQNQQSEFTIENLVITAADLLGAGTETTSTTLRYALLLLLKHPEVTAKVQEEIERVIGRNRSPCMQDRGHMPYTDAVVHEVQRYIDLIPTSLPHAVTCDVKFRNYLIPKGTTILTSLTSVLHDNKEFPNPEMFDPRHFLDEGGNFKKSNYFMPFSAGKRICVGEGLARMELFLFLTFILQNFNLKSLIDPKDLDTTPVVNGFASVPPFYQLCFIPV
PSMB1/PSMB5/PSMB3: PSMB1/PSMB5/PSMB3 (Homo sapiens, UniProt P20618+P28074+P49720)
UniProt P49720, sequence (whole entry, looked up): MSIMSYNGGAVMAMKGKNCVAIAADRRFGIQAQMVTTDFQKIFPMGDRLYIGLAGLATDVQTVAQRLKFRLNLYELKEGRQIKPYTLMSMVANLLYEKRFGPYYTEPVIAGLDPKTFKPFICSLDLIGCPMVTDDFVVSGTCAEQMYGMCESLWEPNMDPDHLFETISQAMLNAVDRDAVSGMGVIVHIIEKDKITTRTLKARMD
UniProt P28074, sequence (whole entry, looked up): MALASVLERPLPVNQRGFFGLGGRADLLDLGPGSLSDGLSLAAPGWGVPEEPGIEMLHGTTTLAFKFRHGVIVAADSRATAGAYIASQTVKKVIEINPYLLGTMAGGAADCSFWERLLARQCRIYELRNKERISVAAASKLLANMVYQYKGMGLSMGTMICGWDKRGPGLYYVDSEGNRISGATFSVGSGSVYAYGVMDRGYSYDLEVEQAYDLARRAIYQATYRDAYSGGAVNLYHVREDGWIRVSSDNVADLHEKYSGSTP
UniProt P20618, sequence (whole entry, looked up): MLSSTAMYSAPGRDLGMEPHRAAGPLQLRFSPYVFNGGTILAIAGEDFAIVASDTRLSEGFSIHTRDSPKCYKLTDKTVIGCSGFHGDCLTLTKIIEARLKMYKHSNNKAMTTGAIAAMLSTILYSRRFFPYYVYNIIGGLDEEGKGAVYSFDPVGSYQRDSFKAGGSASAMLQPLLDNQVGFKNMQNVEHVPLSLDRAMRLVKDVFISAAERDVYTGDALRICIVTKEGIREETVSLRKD
UniProt Q8NFD2, sequence (whole entry, looked up): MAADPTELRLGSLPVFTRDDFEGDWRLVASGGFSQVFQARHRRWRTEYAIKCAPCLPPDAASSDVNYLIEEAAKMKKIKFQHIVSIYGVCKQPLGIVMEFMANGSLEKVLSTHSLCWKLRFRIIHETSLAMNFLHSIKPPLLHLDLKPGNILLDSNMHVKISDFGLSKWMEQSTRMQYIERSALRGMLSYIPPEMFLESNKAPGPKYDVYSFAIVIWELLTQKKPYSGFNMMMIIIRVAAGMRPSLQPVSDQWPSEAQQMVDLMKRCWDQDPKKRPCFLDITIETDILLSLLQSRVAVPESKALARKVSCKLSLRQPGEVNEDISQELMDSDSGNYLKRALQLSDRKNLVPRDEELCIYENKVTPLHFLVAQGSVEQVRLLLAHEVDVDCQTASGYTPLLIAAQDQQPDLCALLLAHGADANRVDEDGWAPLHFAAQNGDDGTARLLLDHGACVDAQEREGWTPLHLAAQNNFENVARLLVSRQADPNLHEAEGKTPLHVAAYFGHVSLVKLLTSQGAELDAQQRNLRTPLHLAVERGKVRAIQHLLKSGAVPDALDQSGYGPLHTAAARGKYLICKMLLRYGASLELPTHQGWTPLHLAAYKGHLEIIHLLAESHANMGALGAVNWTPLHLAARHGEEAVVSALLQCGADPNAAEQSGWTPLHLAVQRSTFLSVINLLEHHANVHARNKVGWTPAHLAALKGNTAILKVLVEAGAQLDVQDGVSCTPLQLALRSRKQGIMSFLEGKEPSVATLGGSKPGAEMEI
UniProt P53350, sequence (whole entry, looked up): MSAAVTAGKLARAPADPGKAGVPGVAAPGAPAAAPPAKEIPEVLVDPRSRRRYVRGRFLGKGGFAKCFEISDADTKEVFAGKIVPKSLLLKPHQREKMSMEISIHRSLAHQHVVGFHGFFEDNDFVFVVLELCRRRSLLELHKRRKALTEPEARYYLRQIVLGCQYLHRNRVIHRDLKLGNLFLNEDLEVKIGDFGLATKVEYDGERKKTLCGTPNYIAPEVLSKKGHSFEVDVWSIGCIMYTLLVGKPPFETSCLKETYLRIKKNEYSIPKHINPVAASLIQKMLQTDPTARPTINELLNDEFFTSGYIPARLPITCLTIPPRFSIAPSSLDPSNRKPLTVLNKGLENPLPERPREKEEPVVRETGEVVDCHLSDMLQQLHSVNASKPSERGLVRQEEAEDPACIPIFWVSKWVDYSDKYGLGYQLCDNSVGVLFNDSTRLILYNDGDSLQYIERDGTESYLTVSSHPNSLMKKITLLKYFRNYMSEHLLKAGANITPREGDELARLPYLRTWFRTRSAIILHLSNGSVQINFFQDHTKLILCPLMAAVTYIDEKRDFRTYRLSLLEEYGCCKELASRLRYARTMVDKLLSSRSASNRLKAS
UniProt P23443, sequence (whole entry, looked up): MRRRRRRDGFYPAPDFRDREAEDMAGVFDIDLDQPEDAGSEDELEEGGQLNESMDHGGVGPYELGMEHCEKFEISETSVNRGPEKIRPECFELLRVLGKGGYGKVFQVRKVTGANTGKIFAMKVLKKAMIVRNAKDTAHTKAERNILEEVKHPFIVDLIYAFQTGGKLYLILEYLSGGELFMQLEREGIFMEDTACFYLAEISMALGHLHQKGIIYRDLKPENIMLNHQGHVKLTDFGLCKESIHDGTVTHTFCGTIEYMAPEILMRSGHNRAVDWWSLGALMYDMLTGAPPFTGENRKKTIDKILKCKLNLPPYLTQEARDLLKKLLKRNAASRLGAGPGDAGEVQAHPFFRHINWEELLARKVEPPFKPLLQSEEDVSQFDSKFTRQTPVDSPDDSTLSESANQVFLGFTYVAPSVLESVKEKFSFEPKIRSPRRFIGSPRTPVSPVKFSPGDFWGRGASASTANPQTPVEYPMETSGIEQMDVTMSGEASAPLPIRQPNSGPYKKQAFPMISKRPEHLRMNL
UniProt P11229, sequence (whole entry, looked up): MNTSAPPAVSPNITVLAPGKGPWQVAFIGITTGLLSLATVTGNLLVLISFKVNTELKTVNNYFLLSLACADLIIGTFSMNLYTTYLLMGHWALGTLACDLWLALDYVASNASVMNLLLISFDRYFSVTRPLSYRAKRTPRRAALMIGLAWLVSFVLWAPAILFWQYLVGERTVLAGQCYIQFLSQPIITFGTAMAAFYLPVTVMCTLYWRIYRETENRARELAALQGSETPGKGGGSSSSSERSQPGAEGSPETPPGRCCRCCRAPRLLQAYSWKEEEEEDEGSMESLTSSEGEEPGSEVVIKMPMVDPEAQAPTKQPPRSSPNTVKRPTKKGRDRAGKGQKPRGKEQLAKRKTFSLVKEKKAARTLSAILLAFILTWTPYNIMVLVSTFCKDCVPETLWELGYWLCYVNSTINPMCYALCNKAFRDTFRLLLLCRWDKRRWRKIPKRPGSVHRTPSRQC
UniProt P11166, sequence (whole entry, looked up): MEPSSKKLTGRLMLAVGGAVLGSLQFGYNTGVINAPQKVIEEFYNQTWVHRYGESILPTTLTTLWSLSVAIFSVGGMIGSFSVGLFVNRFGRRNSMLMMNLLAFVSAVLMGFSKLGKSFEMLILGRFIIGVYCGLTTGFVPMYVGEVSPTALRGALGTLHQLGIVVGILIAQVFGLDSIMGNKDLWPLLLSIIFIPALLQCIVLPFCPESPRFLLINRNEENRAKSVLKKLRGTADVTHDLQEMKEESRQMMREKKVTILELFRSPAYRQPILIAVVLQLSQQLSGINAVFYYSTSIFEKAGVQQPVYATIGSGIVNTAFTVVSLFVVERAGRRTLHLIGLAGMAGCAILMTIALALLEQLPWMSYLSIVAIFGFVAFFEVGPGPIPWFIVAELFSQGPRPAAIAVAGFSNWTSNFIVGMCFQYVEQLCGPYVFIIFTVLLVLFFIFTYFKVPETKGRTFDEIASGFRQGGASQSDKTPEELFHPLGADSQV

Structure (SMILES)	target	test	test system	conditions	scale	quantity	result
CN1CCC(=C2c3ccccc3CC(=O)c3sccc32)CC1	glutathione reductase (human erythrocyte)	–	–	–	–	IC50	12 µM
Cc1ccccc1NC(=O)CN1C(=O)SC(=CC2CCCN2c2cccc(C(=O)O)c2)C1=O (stereo not shown)	KEAP1 NRF2-binding domain	–	–	–	–	IC50	10.4 µM
O=C(/C=C/c1ccc(O)c(O)c1)O[C@@H]1C[C@](O)(C(=O)O)C[C@@H](O)[C@H]1O	sortase A, Staphylococcus aureus	inhibitor	–	–	–	IC50	33.9 µg/mL
Clc1ccc(C2(c3ccc(-c4cn[nH]c4)cc3)CCNCC2)cc1	RPS6KB1 (Homo sapiens, UniProt P23443)	inhibitor	–	–	–	IC50	0.085 µM
CC(=O)N1CCc2c(c(N3CCCc4cc(-c5cnn(C)c5)c(C(F)F)cc43)nn2C2CCOCC2)C1	BRD4 BD1	biochemical	–	bromodomain 1	–	IC50	0.241 µM
O=C(O)c1cc(O)c2c(c1)C(=O)c1cc(O)cc(O)c1C2=O	MAOA (Homo sapiens, UniProt P21397)	–	–	–	–	IC50	23.3 ± 1.16 µM
Oc1ccc(/C=C/c2cc(O)cc(O)c2)cc1	α-amylase (Aspergillus oryzae)	enzyme activity, inhibitor	–	together with: 2-chloro-4-nitrophenyl α-D-maltotrioside	–	IC50	134 µM
CCn1cc(-c2ccnc3[nH]c(-c4cccc(CN(C)C)c4)cc23)c(-c2ccc(NC(=O)N(C)C)cc2)n1	AURKB	kinase activity, inhibitor	–	–	–	IC50	0.00038 µM
OC(Cn1cncn1)(Cn1cncn1)c1ccc(F)cc1F	CYP17A1 lyase	oestrogen synthesis	–	–	–	IC50	28 µM
COc1ccc(CCc2cc(OC)c(OC)c(OC)c2)cc1O	sortase A, Staphylococcus aureus	inhibitor	–	–	–	IC50	20.9 µg/mL
Oc1ccc(-c2ccc(-c3[nH]nc4c3Cc3cc(O)ccc3-4)cc2)cc1	CHEK1	inhibitor	–	–	–	IC50	0.0044 µM
CC(C)C[C@H](NC(=O)[C@H]1O[C@@H]1C(=O)O)C(=O)NCCCCN=C(N)N (relative stereo)	CTSB	–	–	literature value	–	IC50	0.055 µM
CC1=C(/C=C/C(C)=C/C=C/C(C)=C\C(=O)O)C(C)(C)CCC1	PTP1B	–	–	–	–	IC50	44 µM
O=C(/C=C/c1ccc(O)cc1)NCCc1c[nH]c2ccc(O)cc12	tyrosinase	inhibitor	–	–	–	IC50	74 µM
CCN(CC)CCOC(=O)c1ccc(N)cc1	NMDA receptor	–	–	–	–	IC50	296 µM
C#CCOc1ccccc1CCCCCC(=O)O	CYP2C19	inhibitor	–	–	–	IC50	300 µM
COCC(=O)N1CCC[C@H](C(=O)NCc2nc(-c3ccc(C#N)cc3)cs2)C1	PSMB1/PSMB5/PSMB3	enzyme activity, inhibitor	–	–	–	IC50	> 30 µM
C=C(C)[C@H](CC=C(C)C)Cc1c(O)cc(OC)c2c1O[C@H](c1ccc(O)cc1O)CC2=O	tyrosinase	inhibitor	–	–	–	IC50	6.2 µM
CCOCC(=O)N1CCC[C@H](C(=O)NCc2nc(-c3ccc(C#N)cc3)cs2)C1	PSMB1/PSMB5/PSMB3	enzyme activity, inhibitor	–	–	–	IC50	> 30 µM
O=C(OC[C@H]1O[C@@H](OC(=O)c2cc(O)c(O)c(O)c2)[C@H](OC(=O)c2cc(O)c(O)c(O)c2)[C@@H](OC(=O)c2cc(O)c(O)c(O)c2)[C@@H]1OC(=O)c1cc(O)c(O)c(O)c1)c1cc(O)c(O)c(O)c1	tyrosinase	inhibitor	–	–	–	IC50	15 µM
O=C(/C=C/c1ccc(O)c(O)c1/C=C/c1ccc(O)c(O)c1)O[C@H](Cc1ccc(O)c(O)c1)C(=O)O	sortase A (Staphylococcus aureus)	inhibitor	Staphylococcus aureus	–	–	IC50	5.75 µg/mL
N#Cc1ccc(-c2[nH]nc3c2Cc2ccc(OCCCN4CCOCC4)cc2-3)cn1	CHEK1	inhibitor	–	–	–	IC50	0.0032 µM

Structure (SMILES)	target	test	test system	conditions	scale	quantity	result
C=CCn1c(=O)c2cnc(Nc3ccc(N4CCN(C)CC4)cc3)nc2n1-c1ccc2c(n1)[C@@](O)(CC)CC2	PLK1 (Homo sapiens, UniProt P53350)	–	–	–	–	IC50	0.227 µM
CN(C)CCCn1cc(C2=C(c3c[nH]c4ccccc34)C(=O)NC2=O)c2ccccc21	RPS6KA3 (Homo sapiens, UniProt P51812)	kinase activity, inhibitor	–	–	–	IC50	0.31 µM
Nc1cc(C(F)(F)F)c(-c2nc(N3CCOCC3)nc(N3CCOCC3)n2)cn1	ANKK1 (Homo sapiens, UniProt Q8NFD2)	enzyme activity	–	10 µM	reference: untreated	remaining activity	79%
C[C@@]12C(=O)OC(=O)[C@]1(C)[C@H]1CC[C@@H]2O1	protein phosphatase 1	enzyme activity, inhibitor	–	–	–	IC50	0.473 µM
COc1ccc(-c2coc3cc(O)ccc3c2=O)cc1O	tyrosinase	inhibitor	–	–	–	IC50	38.4 ± 0.9 µM
Oc1ccc([C@@H]2c3c(O)cc(O)cc3[C@@H]3c4c(cc(O)c5c4[C@@H]2[C@H](c2ccc(O)cc2)[C@H]5c2cc(O)cc4c2[C@H](c2cc(O)cc(O)c2)[C@@H](c2ccc(O)cc2)O4)O[C@H]3c2ccc(O)cc2)cc1	α-amylase	enzyme activity, inhibitor	–	–	–	IC50	1140 µM
COc1cc(O)c(CC=C(C)C)c(O)c1C(=O)/C=C/c1ccc(O)cc1	Xenopus laevis deiodinase type 3	–	–	–	–	IC50	0.31 ± 0.06 µM
Ic1ccc(CSCn2ccnc2)cc1	CYP2C19	inhibitor	–	–	–	IC50	0.037 µM
CC1=NN(c2ccc(C)c(C)c2)C(=O)/C1=N\Nc1cccc(-c2cccc(C(=O)O)c2)c1O	ABCG2 (Homo sapiens, UniProt Q9UNQ0)	inhibitor	–	–	–	IC50	2.7 µM
O=C(O)CCCCCCCC(=O)O	tyrosinase	inhibitor	–	–	–	IC50	> 369 µM
C[C@@]12CCC(=O)c3coc(c31)C(=O)c1cc3c(O)ccc(O)c3cc12	sortase A (Staphylococcus aureus)	inhibitor	Staphylococcus aureus	–	–	IC50	13.9 µM
COC(=O)c1cc(O)c(O)c(O)c1	tyrosinase	inhibitor	–	–	–	IC50	> 100 µM
O=C(O)c1ccc(-c2c[nH]c3ncc(-c4ccccc4)cc23)cc1C1CCCC1	AURKB	kinase activity, inhibitor	–	–	–	IC50	0.00528 µM
COc1cc2c(cc1-c1c(C)noc1C)[nH]c1nc(C)nc(Nc3cc(C4CC4)nn3C)c12	BRD4 BD1	biochemical	–	bromodomain 1	–	IC50	0.002 µM
C#CCOc1ccccc1CCCCCC(=O)NS(C)(=O)=O	CYP2C19	inhibitor	–	–	–	IC50	> 80 µM
CC1=C[C@@]2(C[C@H](C)[C@H]3CC=C(C)C(=O)[C@@H]3O2)OC1=O	PTP1B	inhibitor	–	–	–	IC50	40.4 µM
O=C(Oc1cccc(F)c1OC(=O)c1cccc(O)c1)c1cccc(O)c1	SLC2A1 (Homo sapiens, UniProt P11166)	glucose uptake	H1299	–	–	IC50	10.9 µM
COc1cc(C[C@H](C)[C@H](C)Cc2ccc3c(c2)OCO3)ccc1O	tyrosinase	inhibitor	–	–	–	IC50	30 µM
C[N+]1(C)CCC(OC(=O)C(c2ccccc2)c2ccccc2)CC1	CHRM1 (Homo sapiens, UniProt P11229)	inhibitor	–	historical reference value	–	IC50	0.0045 µM
O=C(OC[C@H]1O[C@@H](OC(=O)c2cc(O)c(O)c(O)c2)[C@H](OC(=O)c2cc(O)c(O)c(O)c2)[C@@H](OC(=O)c2cc(O)c(O)c(O)c2)[C@@H]1O)c1cc(O)c(O)c(O)c1	tyrosinase	inhibitor	–	–	–	IC50	30 µM
CC(C)C[C@H](NC(=O)[C@@H](NC(=O)N[C@@H](Cc1ccccc1)C(=O)O)[C@@H]1CCN=C(N)N1)C(=O)N[C@H](C=O)Cc1ccccc1	CTSB	–	–	literature value	–	IC50	1.8 µM

Excerpt of the above:
Structure (SMILES)	target	test	test system	conditions	scale	quantity	result
C[C@@]12CCC(=O)c3coc(c31)C(=O)c1cc3c(O)ccc(O)c3cc12	sortase A (Staphylococcus aureus)	inhibitor	Staphylococcus aureus	–	–	IC50	13.9 µM
COC(=O)c1cc(O)c(O)c(O)c1	tyrosinase	inhibitor	–	–	–	IC50	> 100 µM
O=C(O)c1ccc(-c2c[nH]c3ncc(-c4ccccc4)cc23)cc1C1CCCC1	AURKB	kinase activity, inhibitor	–	–	–	IC50	0.00528 µM
